Results collected from several papers.
Compare with care: the assays were run in different laboratories.
Target: 5-hydroxytryptamine receptor 2A (HTR2A, Homo sapiens, UniProt P28223)
UniProt P28223, sequence (whole entry, looked up): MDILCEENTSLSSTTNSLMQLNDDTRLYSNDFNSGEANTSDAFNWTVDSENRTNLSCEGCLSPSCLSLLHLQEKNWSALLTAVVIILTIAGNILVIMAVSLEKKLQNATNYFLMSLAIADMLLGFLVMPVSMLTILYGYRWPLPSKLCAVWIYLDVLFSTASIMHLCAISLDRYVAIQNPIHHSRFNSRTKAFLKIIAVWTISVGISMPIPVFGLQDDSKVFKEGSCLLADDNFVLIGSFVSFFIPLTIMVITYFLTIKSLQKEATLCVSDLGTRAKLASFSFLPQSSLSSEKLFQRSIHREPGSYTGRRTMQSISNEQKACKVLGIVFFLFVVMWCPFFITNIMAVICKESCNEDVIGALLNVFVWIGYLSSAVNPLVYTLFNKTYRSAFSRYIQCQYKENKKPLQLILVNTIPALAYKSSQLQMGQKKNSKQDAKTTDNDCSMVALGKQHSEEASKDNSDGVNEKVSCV

COc1cc(CCNCc2ccccc2F)c(OC)cc1I
Ki (ligand displacement in cells, radioligand): 10 nM

C/C=C1/CN2CCc3c([nH]c4ccccc34)[C@@H]2C[C@@H]1/C(=C\OC)C(=O)OC
IC50 (inositol phosphate, antagonist): 2310 nM

Cc1cc(C2=CCN(CC3OCCO3)CC2)cc([N+](=O)[O-])c1N
EC50 (β-arrestin recruitment, agonist): 4900 nM

COc1c(OCCOCCOCCOc2cccc(C(=O)C3CCN(CCc4ccc(F)cc4)CC3)c2OC)cccc1C(=O)C1CCN(CCc2ccc(F)cc2)CC1
IC50 (phosphorylation in cells, antagonist): 25.6 nM

CN(C)[C@H](CNC(=O)/C=C/c1cccc2ccccc12)Cc1ccc(O)cc1
Ki (cell-free assay): 190 nM

COc1c(O)cccc1C(=O)C1CCN(CCc2ccc(F)cc2)CC1
IC50 (phosphorylation in cells, antagonist): 10.1 nM

COc1cc(CCN)c(OC)cc1Cl
Ki (ligand displacement in cells, radioligand): 13 nM

CN(CCc1ccc(O)c(Br)c1)CCc1nccs1
Ki (ligand displacement, radioligand; cell membranes): 96 nM

COc1c(OCCOCCOCCOCCOCCOc2cccc(C(=O)C3CCN(CCc4ccc(F)cc4)CC3)c2OC)cccc1C(=O)C1CCN(CCc2ccc(F)cc2)CC1
IC50 (phosphorylation in cells, antagonist): 98.2 nM

CN(C)CCc1c[nH]c2ccccc12
Ki (ligand displacement in cells, radioligand): 88.5 nM

For quick reference, copied from above:
COc1cc(CCN)c(OC)cc1Cl
Ki (ligand displacement in cells, radioligand): 13 nM
